# Results from different studies.
# Every numbered part comes from another study and shows a few of its results, in no order. Changes are numbered by the printed parent chain.

# Block 1 — target: CCNE1, cyclin fold, Cln2 fusion (human); technique: yeast growth competition, sequencing; medium: yeast; notes: strong parent motif; relative to: not given; direction: higher = stronger binding
# Starting sequence: CDC25A docking peptide (human); PPHRRRLLFACSP
Change,normalised enrichment score
P2S,1.05
R5I,1.72
C11M,1.07
P13Y,1.31
P1F,0.604

# Block 2 — technique: RNA Bind-n-Seq; molecule type: RNA; medium: in vitro; concentration: 200 nM; notes: whole 134-nt RNA, ends assumed; together with: 150 mM KCl; relative to: input library; direction: higher = stronger binding
# Target: Ras GTPase-activating protein-binding protein 1, full length (G3BP1, Homo sapiens, UniProt Q13283)
# Sequence of UniProt Q13283 (whole entry, looked up): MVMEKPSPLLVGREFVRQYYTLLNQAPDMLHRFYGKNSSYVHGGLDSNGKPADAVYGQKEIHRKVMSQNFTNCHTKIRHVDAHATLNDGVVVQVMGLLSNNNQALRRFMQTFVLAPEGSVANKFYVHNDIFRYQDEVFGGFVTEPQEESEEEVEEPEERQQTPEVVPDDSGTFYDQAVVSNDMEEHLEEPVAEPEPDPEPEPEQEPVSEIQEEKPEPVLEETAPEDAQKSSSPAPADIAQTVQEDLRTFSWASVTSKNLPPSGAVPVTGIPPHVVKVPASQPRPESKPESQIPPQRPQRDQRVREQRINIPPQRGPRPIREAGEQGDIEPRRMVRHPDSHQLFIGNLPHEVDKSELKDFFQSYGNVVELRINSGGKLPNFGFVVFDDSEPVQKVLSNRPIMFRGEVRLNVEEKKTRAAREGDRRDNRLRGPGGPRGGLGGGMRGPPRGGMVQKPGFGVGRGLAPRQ
# Shared flanks, not repeated: GGGAGUUCUACAGUCCGACGAUC … UGGAAUUCUCGGGUGUCAAGG
Oligonucleotide,log2 enrichment
GUCCUGUGCUACACAUCGUAUGUACCGAAUCGGGCCCCCCGGCCCCCCGGCCCCCCGGGAAAGUAUUAUGUUACGCCGUUCGGAUCUGCA,-0.31
AGUCCUGUGCUACACAUCGUAUGUACCGAAUCGGGUUUUUGGGAAAAAAAGGGUGGGAAAGUAUUAUGUUACGCCGUUCGGAUCUGCACU,-0.114
CCUGUGCUACACAUCGUAUGUACCGAAUCGGGUUUUUUUGGGUUUUUUUGGUUUUUUUGGGAAAGUAUUAUGUUACGCCGUUCGGAUCUG,-0.994
CACAGACAACACGCACCCACACAGACACAGAGGGAAGGGGUUGGGAUGGGGACAGGGUGCACAGCAGGGCGGGGUAGGACCACAGCCCCU,1.86
UGGCUUUCACCCCCAACCAGUGACCAAAGACUUGACCACUCAAAGUCCAGCUCCCCAGAACACUGCUCGACAUGGACACCGGUGUGAUUG,0.934
GUCCUGUGCUACACAUCGUAUGUACCGAAUCGGGGAAAAGGGGAAAAGGGGAAAAGGGGAAAGUAUUAUGUUACGCCGUUCGGAUCUGCA,0.468
UCCUCAAGUCCUGUGCUACACAUCGUAUGUACCGAAUCGGCGGGGCGGCGGGAAAGUAUUAUGUUACGCCGUUCGGAUCUGCACUUCCAG,0.116

# Block 3 — technique: protein-binding microarray; molecule type: double-stranded DNA, one strand shown; medium: in vitro; concentration: 2200 nM top; notes: 60-bp whole probe; together with: salmon DNA 0.4 mg/ml; relative to: random background probes; direction: higher = stronger binding; shared flanks, not repeated: GCCTAGCACT … GTCTTGATTCGCTTGACGCTGCTG
# Target: Interferon regulatory factor 7, full length, phosphomimetic (IRF7, Homo sapiens, UniProt Q92985, residues 1-503, S471D/S472D/S475D/S476D/S477D/S483D/S484D/S487D)
# Residues (chain): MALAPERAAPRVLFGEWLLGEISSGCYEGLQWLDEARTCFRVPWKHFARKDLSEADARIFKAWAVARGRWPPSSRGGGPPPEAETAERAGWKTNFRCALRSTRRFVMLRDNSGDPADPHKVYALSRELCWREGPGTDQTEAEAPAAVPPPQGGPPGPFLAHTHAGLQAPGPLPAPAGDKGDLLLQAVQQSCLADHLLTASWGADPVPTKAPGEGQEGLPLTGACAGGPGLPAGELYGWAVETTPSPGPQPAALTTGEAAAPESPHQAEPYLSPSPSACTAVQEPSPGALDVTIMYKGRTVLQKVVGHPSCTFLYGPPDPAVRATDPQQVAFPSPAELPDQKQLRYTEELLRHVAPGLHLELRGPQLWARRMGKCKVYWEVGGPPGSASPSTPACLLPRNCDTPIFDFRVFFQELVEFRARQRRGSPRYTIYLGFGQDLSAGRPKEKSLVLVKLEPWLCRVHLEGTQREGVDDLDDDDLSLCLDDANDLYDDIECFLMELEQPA
Oligonucleotide,fitted relative affinity [z-score]
CACGGATGATCTCTCTGACTGTGCTA,0.388
TAGGACTCGGTATCGGTTAGTGCTAG,0.83
TAGGTCTCAGTATCGGTTAGTGCTAG,0.802
GAGGTTCCCTTTTCCTTTAGTGCTAG,2.65
TTGATCTCAGTATCGATTAGTGCTAG,0.714
TAGAACTGGGGTAGCGATTAGTGCTA,-0.748

# Mixed results
Substance,target,assay,system,conditions,how to read,measurement,result
"PhoQ, residues 284 288 289 292 302 303 TASMAF","PhoP, residues 12 14 15 18 19 SEGLL (Escherichia coli, UniProt P23836)","Sort-seq, item: YFP reporter",E. coli,"PhoQ-PhoP variant library, together with: 10 µM Mg2+","relative to: high Mg2+ state, higher = stronger signaling",fold induction,2.92

# For quick reference, copied from above (block 1):
Change,normalised enrichment score
R5I,1.72
C11M,1.07
